Results from different studies.
Each line is one published result; not all experiments were run side by side. ± gives the spread as reported.

CCC1NC(=O)C(CCCNC(=N)N)NC(=O)C(C)(NC(=O)C(C)C)CCCCNC(=O)C(c2ccccc2)NC1=O (stereo not shown)  H4K16ac level (immunoblot; MLL-AF9 leukaemia cells, mouse; dose not given, 4 days): no effect
COc1cc([C@@H]2c3cc4c(cc3[C@](O)(C3(O)CCOCC3)[C@H]3COC(=O)[C@H]23)OCO4)cc(OC)c1OC  EC50 (Leishmania infantum; iRFP fluorescence; mouse splenocytes infected, amastigote, iRFP, ex vivo splenic explant; 48 h): 5.9 ± 1.1 µM
C/C=C/Cn1c(Cc2cc(OC)c(OC)c(OC)c2)nc2c(N)ncnc21  Ki (Trap-1; binding, fluorescence polarization competition): 28.6 ± 1.2 µM
COc1cc([C@@H]2c3cc4c(cc3C=C(C=O)[C@H]2C(=O)OCc2ccc(CBr)cc2)OCO4)cc(OC)c1OC  EC50 (Leishmania infantum; promastigote, iRFP): 79.9 ± 5.7 µM
C=CC(=O)Nc1cccc(N(C(=O)OCc2ccc(F)cc2)c2ccnc(Nc3ccn(C)n3)n2)c1  EC50 (Ba/F3 wild-type EGFR; cell growth): 0.021 ± 0.0042 µM
CC(=NN=c1[nH]c2cc(F)c(F)cc2n1C)c1ccc(F)cn1  tumour volume reduction (LM2 xenograft, mice; 10 mg/kg/day, four weeks): > 50%
Cc1nn(C)c2c(C(C(=O)O)N3CC(OCCCCc4ccc5c(n4)NCCC5)C3)cccc12 (stereo not shown)  cardiomyocyte cross-sectional area (rat, pulmonary artery banding model): decreased
Cc1ncsc1-c1ccc([C@H](C)NC(=O)[C@@H]2C[C@@H](O)CN2C(=O)[C@@H](NC(=O)CCCCCCC(=O)N2CCN(C[C@]3(C)CCC(c4ccc(Cl)cc4)=C(CN4CCN(c5ccc(C(=O)NS(=O)(=O)c6ccc(N[C@H](CCN7CCOCC7)CSc7ccccc7)c(S(=O)(=O)C(F)(F)F)c6)cc5)CC4)C3)CC2)C(C)(C)C)cc1  mRNA level (item: SASP and necroptosis genes; STAM mice NASH-HCC model, liver; dose not given, day 150, treated days 45-150): decreased
C[C@@H]1CN(C2CCC2)CC[C@H](O[C@H]2[C@@H](O)C[C@H](O[C@H]3[C@@H](O)C[C@H](O[C@H]4CC[C@@]5(C)[C@H](CC[C@@H]6[C@@H]5C[C@@H](O)[C@]5(C)[C@@H](C7=CC(=O)OC7)CC[C@]65O)C4)O[C@@H]3C)O[C@@H]2C)O1  baseline extracellular K+ (rat hippocampal slices; 10 µM, 24 min): 3.81 ± 0.17 mM
COC(=O)[C@@H]1C(C=Nc2cc(C)ccc2O)=Cc2cc3c(cc2[C@H]1c1cc(OC)c(OC)c(OC)c1)OCO3  EC50 (Leishmania infantum; iRFP fluorescence; mouse splenocytes infected, amastigote, iRFP, ex vivo splenic explant; 48 h): 70.5 ± 3.7 µM
CCOC(=O)C1=C(C)NC2=C(C(=O)CC(C)(C)C2)C1c1ccc(OCC(=O)NN=Cc2cccc(C=O)c2)cc1OCC(=O)NN=Cc1cccc(C=O)c1 (stereo not shown)  inhibition zone diameter (Bacillus megaterium; DSM 32; concentration not given, 24 h): 5.5 ± 0.1 mm
CCOc1ccccc1Nc1nnc(SCC(=O)Nc2cc(F)ccc2F)s1  IL-2 reduction (A549 spheroids with human PBMCs; 25 µM, 48 h, added: soluble anti-CD3; baseline: anti-CD3 alone): > 70%
COC(=O)[C@@H]1C(C=Nc2cncnc2NC(C)=O)=Cc2cc3c(cc2[C@H]1c1cc(OC)c(OC)c(OC)c1)OCO3  selectivity index (Leishmania infantum; Alamar Blue; HepG2; baseline: CC50 HepG2 over EC50 amastigotes): 0.1
CN(C)C(=O)Cn1cc(-c2ccc(-c3cncc4ccncc34)cc2)cn1  IC50 (KG-1; cell growth, viability): < 1 µM
COC(=O)[C@@H]1C(C=Nc2ccccc2)=Cc2cc3c(cc2[C@H]1c1cc(OC)c(OC)c(OC)c1)OCO3  selectivity index (Leishmania; mouse splenocytes; baseline: CC50 over amastigote EC50): > 5.1
C=CC(=O)N1CCC(c2cc(Nc3cc4n(n3)CCOC4)c3ncnn3c2)C1 (single isomer, unassigned)  maximum inhibition (TMD8 wild type; calcium flux, FLIPR; 2 h preincubation, added: anti-IgM): 26.2%

Excerpt of the above:
COc1cc([C@@H]2c3cc4c(cc3C=C(C=O)[C@H]2C(=O)OCc2ccc(CBr)cc2)OCO4)cc(OC)c1OC  EC50 (Leishmania infantum; promastigote, iRFP): 79.9 ± 5.7 µM
